# Published values of several laboratories.
# Protocols differ between the studies behind these lines. Several values in a cell are separate wells, animals, samples, runs or records.
# 4'-phosphopantetheinyl transferase PptT: 4'-phosphopantetheinyl transferase PptT (Mycobacterium tuberculosis, UniProt O33336)
# Chain of UniProt O33336 (whole entry, looked up): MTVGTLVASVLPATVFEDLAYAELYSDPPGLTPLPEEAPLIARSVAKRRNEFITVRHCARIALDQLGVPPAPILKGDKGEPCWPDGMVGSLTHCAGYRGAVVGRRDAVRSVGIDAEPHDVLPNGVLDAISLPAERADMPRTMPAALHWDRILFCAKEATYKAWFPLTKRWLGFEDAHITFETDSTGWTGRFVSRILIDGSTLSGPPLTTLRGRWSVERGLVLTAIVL
# HLA class I histocompatibility antigen, A alpha chain: HLA class I histocompatibility antigen, A alpha chain (Homo sapiens, UniProt P04439)
# TEAD4: Transcriptional enhancer factor TEF-3 (TEAD4, Homo sapiens, UniProt Q15561)
# Chain of UniProt Q15561 (whole entry, looked up): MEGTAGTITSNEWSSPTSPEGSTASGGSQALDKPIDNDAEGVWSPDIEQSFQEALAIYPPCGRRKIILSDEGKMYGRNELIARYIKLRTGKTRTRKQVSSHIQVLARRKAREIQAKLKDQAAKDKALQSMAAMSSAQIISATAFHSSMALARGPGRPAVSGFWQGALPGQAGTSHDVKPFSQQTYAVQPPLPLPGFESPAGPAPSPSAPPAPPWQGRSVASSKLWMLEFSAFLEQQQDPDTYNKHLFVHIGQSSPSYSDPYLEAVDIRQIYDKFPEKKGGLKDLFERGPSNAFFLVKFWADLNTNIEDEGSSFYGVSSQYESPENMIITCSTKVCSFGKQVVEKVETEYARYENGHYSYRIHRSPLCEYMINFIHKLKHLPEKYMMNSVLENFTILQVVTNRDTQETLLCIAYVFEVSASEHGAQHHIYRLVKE
# HTR1F: 5-hydroxytryptamine receptor 1F (HTR1F, Homo sapiens, UniProt P30939)
# Chain of UniProt P30939 (whole entry, looked up): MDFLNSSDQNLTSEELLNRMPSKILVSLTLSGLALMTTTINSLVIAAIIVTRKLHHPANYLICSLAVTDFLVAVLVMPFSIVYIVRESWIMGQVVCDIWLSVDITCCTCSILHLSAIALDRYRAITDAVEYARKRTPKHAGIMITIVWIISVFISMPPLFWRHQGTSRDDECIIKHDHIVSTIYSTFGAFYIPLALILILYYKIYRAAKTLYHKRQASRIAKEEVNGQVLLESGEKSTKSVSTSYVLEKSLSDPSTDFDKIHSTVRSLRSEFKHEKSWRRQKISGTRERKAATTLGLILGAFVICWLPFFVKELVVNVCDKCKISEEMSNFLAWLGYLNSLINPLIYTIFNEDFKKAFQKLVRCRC
# Chain of UniProt Q92847 (whole entry, looked up): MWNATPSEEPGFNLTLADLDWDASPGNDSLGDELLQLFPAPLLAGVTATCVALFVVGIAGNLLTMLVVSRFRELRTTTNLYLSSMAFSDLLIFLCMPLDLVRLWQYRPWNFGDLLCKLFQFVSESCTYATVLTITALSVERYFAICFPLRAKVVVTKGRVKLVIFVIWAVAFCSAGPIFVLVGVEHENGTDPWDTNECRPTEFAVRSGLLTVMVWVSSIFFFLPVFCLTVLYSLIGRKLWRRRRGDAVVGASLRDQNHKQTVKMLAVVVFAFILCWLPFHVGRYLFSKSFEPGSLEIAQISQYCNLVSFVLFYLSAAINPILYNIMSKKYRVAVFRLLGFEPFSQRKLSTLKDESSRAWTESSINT
# Chain of UniProt Q96RU2 (whole entry, looked up): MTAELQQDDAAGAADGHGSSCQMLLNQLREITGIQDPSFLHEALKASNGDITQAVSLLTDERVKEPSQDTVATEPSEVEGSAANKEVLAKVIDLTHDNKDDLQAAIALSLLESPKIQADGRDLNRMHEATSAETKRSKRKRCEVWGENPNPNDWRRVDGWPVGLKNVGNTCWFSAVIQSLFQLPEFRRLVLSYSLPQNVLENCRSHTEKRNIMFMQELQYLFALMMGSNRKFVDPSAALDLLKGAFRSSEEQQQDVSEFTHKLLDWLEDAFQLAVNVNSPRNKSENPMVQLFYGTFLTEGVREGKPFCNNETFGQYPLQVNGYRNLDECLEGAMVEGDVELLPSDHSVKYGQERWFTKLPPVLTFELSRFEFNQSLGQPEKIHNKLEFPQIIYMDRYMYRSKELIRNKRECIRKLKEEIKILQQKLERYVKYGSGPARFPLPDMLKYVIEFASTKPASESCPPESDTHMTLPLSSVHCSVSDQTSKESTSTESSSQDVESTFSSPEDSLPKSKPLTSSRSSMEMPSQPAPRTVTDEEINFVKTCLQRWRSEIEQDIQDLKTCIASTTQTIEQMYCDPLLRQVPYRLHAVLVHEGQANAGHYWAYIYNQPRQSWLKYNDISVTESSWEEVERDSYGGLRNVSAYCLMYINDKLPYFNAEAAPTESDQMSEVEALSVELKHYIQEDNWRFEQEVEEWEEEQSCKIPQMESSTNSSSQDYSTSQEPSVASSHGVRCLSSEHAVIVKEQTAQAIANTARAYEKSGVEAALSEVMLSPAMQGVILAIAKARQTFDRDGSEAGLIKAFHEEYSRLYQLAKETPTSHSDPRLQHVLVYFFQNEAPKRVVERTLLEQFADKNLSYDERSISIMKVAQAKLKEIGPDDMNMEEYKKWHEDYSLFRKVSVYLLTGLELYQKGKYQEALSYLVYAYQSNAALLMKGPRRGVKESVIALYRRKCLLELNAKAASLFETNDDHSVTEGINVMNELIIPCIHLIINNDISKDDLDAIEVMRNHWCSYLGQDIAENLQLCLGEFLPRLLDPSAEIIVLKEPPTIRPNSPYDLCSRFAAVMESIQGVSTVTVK
# Chain of UniProt Q9UQB9 (whole entry, looked up): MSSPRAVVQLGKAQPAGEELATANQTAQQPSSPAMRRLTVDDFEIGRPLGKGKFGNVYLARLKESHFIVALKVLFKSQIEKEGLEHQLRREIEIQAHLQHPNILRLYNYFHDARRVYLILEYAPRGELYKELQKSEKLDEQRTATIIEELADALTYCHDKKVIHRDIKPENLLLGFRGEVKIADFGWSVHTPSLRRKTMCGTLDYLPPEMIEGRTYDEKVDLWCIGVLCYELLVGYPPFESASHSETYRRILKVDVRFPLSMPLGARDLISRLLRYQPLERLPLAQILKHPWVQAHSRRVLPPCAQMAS
# Chain of UniProt Q9UGM1 (whole entry, looked up): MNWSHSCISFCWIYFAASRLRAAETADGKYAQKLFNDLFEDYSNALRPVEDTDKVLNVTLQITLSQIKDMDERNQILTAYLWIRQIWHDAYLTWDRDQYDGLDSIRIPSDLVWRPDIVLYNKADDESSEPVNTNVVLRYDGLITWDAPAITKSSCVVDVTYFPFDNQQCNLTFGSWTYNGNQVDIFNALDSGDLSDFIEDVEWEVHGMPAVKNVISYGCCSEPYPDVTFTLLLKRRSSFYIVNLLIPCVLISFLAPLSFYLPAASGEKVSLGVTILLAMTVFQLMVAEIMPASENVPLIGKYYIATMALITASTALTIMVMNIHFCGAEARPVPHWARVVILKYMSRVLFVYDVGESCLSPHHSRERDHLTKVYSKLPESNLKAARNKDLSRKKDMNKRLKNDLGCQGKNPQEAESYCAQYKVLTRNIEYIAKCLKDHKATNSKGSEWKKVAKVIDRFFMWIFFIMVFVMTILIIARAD
# Chain of UniProt P15090 (whole entry, looked up): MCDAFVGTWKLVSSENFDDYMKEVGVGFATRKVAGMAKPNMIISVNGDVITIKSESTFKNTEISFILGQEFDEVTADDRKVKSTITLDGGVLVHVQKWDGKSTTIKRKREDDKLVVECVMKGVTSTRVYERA
# Chain of UniProt Q9UK32 (whole entry, looked up): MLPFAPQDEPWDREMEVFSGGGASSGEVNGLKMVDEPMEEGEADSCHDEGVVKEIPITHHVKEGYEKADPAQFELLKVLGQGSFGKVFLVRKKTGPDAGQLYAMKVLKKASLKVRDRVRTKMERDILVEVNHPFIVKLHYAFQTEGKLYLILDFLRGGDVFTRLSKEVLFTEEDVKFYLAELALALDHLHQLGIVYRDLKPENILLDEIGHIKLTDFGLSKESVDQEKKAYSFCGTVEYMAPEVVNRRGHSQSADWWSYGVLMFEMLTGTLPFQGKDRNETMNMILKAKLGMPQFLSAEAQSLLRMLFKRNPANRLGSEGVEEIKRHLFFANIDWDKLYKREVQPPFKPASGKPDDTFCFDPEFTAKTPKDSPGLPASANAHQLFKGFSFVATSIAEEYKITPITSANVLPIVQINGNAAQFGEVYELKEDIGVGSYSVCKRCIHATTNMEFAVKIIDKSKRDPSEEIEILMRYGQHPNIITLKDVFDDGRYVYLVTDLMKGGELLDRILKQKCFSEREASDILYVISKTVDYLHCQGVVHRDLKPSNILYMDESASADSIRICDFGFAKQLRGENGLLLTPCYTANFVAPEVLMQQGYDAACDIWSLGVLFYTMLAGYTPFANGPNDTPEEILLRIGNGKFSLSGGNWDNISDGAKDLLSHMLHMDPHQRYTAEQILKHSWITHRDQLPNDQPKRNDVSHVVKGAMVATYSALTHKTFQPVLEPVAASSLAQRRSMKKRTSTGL
# Chain of UniProt P41595 (whole entry, looked up): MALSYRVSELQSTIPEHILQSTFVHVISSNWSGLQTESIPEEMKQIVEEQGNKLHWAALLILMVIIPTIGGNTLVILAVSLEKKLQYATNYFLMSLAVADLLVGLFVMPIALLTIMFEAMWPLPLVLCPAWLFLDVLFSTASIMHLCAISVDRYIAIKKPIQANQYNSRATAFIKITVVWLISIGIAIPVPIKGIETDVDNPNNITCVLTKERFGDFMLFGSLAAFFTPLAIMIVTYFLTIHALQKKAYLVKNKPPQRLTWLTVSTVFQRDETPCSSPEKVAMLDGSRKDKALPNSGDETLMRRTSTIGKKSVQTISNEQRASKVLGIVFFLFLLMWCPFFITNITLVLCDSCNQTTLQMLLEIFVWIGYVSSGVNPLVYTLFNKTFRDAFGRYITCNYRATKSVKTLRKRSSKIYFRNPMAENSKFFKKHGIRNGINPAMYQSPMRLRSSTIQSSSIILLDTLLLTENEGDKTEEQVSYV
# Chain of UniProt P48039 (whole entry, looked up): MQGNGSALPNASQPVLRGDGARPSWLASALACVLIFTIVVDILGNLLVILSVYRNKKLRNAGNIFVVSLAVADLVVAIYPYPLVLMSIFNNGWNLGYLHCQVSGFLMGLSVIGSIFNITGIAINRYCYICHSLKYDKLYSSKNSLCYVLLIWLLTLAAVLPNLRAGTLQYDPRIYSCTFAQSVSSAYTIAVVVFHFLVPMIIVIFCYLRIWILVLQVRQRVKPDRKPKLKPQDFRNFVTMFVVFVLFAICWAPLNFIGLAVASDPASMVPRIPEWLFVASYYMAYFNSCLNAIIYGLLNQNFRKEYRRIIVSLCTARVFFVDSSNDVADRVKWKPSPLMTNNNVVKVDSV
Structure (SMILES),tested on,assay,system,conditions,quantity,value
CCC(C(=O)Nc1cc(NC2CCOCC2)ccc1C)n1cc(Br)cc2nc(SCc3ccc(F)cc3)nc1-2 (stereo not shown),"USP28 (Homo sapiens, UniProt Q96RU2)","enzyme activity, inhibitor",,,IC50,> 100 µM
Cc1ccc2c(c1)C(=O)C1(O)CCN(c3ccccc3)C1=N2 (stereo not shown),"Myosin-9 (MYH9, Homo sapiens, UniProt P35579)","ATPase activity, inhibitor",,,Ki,2.9 µM
CC(C)C(=O)OCc1cc2[nH]c(=S)n(Cc3cncc(C#N)c3)c(=O)c2cc1Cl,4'-phosphopantetheinyl transferase PptT,"enzyme activity, inhibitor, FP",,,IC50,84.7 µM
CC[C@H](C)[C@H](NC(=O)[C@@H]1CCCN1C(=O)[C@H](Cc1c[nH]cn1)NC(=O)[C@H](CCCCN)NC(=O)[C@H](Cc1ccccc1)NC(=O)[C@H](CC(C)C)NC(=O)[C@@H](N)CCCCN)C(=O)N[C@@H](CCC(N)=O)C(=O)N[C@@H](CC(C)C)C(=O)O,"HLA class I histocompatibility antigen, A alpha chain",cell-free assay,,,IC50,0.043 µM
COc1ccccc1CCN1CCN(CCc2ccccc2)CC1,"SLC6A2 (Homo sapiens, UniProt P23975)","transporter uptake, inhibitor, radiometric",,,Ki,2.47 µM
COc1cc2c(cc1OC)CN(CCc1ccc(NC(=O)c3cccc4c(=O)c5cccc(OC)c5[nH]c34)cc1)CC2,"ADRA1B (Homo sapiens, UniProt P35368)",cell-free assay,,,Ki,0.196 µM
CC[C@H](C)[C@H](NC(=O)[C@H](C)NC(=O)[C@H](C)NC(=O)[C@H](CCC(=O)O)NC(=O)[C@H](CCCNC(=N)N)NC(=O)[C@H](C)NC(=O)[C@H](CC(C)C)NC(=O)[C@H](CC(C)C)NC(=O)[C@H](CCCNC(=N)N)NC(=O)[C@H](CCCNC(=N)N)NC(=O)[C@H](CC(C)C)NC(=O)[C@H](Cc1c[nH]cn1)NC(=O)[C@H](CCC(=O)O)NC(=O)[C@@H]1CCCN1C(=O)[C@H](CO)NC(=O)[C@H](CC(C)C)NC(=O)[C@H](Cc1ccccc1)NC(=O)[C@H](Cc1c[nH]c2ccccc12)NC(=O)[C@H](CO)NC(=O)CN)C(=O)N1CCC[C@H]1C(=O)N1CCC[C@H]1C(=O)N1CCC[C@H]1C(=O)N1CCC[C@H]1C(=O)N[C@H](C(=O)N[C@H](C(=O)N1CCC[C@H]1C(=O)N1CCC[C@H]1C(=O)O)C(C)C)C(C)C,"GHSR (Homo sapiens, UniProt Q92847)","calcium signal, agonist, fluorescence",,,EC50,0.1 µM and < 0.1 µM
CSCC[C@H](NC(=O)[C@H](CCCNC(=N)N)NC(=O)[C@@H](N)C(C)C)C(=O)N[C@@H](CCCNC(=N)N)C(=O)N[C@@H](CC(C)C)C(=O)N[C@@H](CCCNC(=N)N)C(=O)N[C@@H](CCCCN)C(=O)N[C@@H](CC(C)C)C(=O)N[C@@H](CCCNC(=N)N)C(=O)N[C@@H](Cc1ccc(O)cc1)C(=O)N[C@@H](CO)C(=O)N[C@@H](Cc1ccccc1)C(=O)N[C@@H](Cc1ccccc1)C(=O)N[C@@H](CCCCN)C(=O)N1CCC[C@H]1C(=O)N1CCC[C@H]1C(=O)N[C@@H](CCC(=O)O)C(=O)O,TEAD4,"binding, SPR",,pH 7.4,Kd,4.18 µM
CC[C@H](C)[C@H](NC(=O)[C@@H](N)Cc1c[nH]cn1)C(=O)N[C@@H](Cc1ccccc1)C(=O)N[C@@H](CO)C(=O)N[C@@H](CCCNC(=N)N)C(=O)N1CCC[C@H]1C(=O)N[C@@H](CCSC)C(=O)N[C@H](C(=O)N[C@@H](Cc1ccccc1)C(=O)O)[C@@H](C)O,"HLA class I histocompatibility antigen, A alpha chain",cell-free assay,,,IC50,2.87 µM
COc1ccc2cccc(C(CO)CNC(=O)CF)c2c1 (stereo not shown),"MTNR1A (Homo sapiens, UniProt P48039)","cAMP, agonist, TR-FRET",,,EC50,0.0178 µM
CSCC[C@H](NC(=O)[C@H](CO)NC(=O)[C@H](CC(C)C)NC(=O)[C@H](CO)NC(=O)[C@H](Cc1c[nH]cn1)NC(=O)CNC(=O)[C@H](Cc1ccc(O)cc1)NC(=O)[C@H](CC(C)C)NC(=O)[C@@H](N)CCCNC(=N)N)C(=O)O,"HLA class I histocompatibility antigen, A alpha chain",cell-free assay,,,IC50,0.014 µM
NS(=O)(=O)C(F)(F)C(F)(F)C(F)(F)C(F)(F)C(F)(F)C(F)(F)C(F)(F)C(F)(F)F,"FABP4 (Homo sapiens, UniProt P15090)","ligand displacement, fluorescence",,,Ki,6.95 µM
[2H]c1c([2H])c([C@]2([2H])CCCN2C(=O)C(C)(C)Oc2ccc3cn[nH]c3c2)c([2H])c([2H])c1C([2H])([2H])[2H],"Aurora kinase C (AURKC, Homo sapiens, UniProt Q9UQB9)","binding, competition with immobilised ligand",,1 µM,remaining binding,79%
Nc1ncc(-c2nc(N3CCOCC3)nc(N3CCOCC3)n2)c(C(F)F)n1,"IRAK3 (Homo sapiens, UniProt Q9Y616)","binding, competition with immobilised ligand",,10 µM,remaining binding,83%
CC(C)[C@@H](Nc1nc(Cl)nc2c1ncn2[C@H]1[C@H](O)[C@H](O)[C@]2(CN)C[C@H]12)C1CC1,"HTR2B (Homo sapiens, UniProt P41595)","ligand displacement, radioligand",,,Ki,0.472 µM
CC[C@H](C)[C@H](NC(=O)[C@H](Cc1c[nH]cn1)NC(=O)[C@H](CCCCN)NC(=O)[C@H](Cc1ccc(O)cc1)NC(=O)[C@@H](NC(=O)[C@@H](N)Cc1c[nH]cn1)C(C)C)C(=O)N[C@@H](CC(C)C)C(=O)N[C@H](C(=O)N[C@@H](Cc1ccccc1)C(=O)O)[C@@H](C)O,"HLA class I histocompatibility antigen, A alpha chain",cell-free assay,,,IC50,0.105 µM
Ic1cccc(-c2noc(C[C@@H]3CN4CCC3CC4)n2)c1,"CHRNA9 (Homo sapiens, UniProt Q9UGM1)","ion current, agonist, two-electrode voltage clamp",,oocytes,EC50,24.3 µM
CC(C)C[C@H](NC(=O)[C@@H](N)[C@@H](C)O)C(=O)N[C@@H](CCC(N)=O)C(=O)N1CCC[C@H]1C(=O)N1CCC[C@H]1C(=O)N[C@@H](C)C(=O)N[C@@H](CO)C(=O)N[C@@H](CO)C(=O)N[C@@H](CCCNC(=N)N)C(=O)N[C@H](CCCNC(=N)N)C(=O)N[C@@H](CCCNC(=N)N)C(=O)N[C@@H](Cc1c[nH]cn1)C(=O)N[C@@H](Cc1ccccc1)C(=O)N[C@@H](Cc1c[nH]cn1)C(=O)N[C@@H](Cc1c[nH]cn1)C(=O)N[C@@H](C)C(=O)N[C@@H](CC(C)C)C(=O)N1CCC[C@H]1C(=O)N1CCC[C@H]1C(=O)N[C@@H](C)C(=O)N[C@@H](CCCCNC(=N)N)C(=O)O,"C3AR1 (Homo sapiens, UniProt Q16581)","β-arrestin recruitment, agonist",,,EC50,0.214 µM
COc1ncccc1-c1cnn2ccc(N3CCN(C(=O)OC(C)C)CC3)nc12,"SRPK3 (Homo sapiens, UniProt Q9UPE1)","binding, competition with immobilised ligand",,1 µM,remaining binding,88%
CC(C)[C@H](NC(=O)[C@@H](N)Cc1ccc(O)cc1)C(=O)N[C@@H](Cc1ccc(O)cc1)C(=O)N[C@@H](CCC(N)=O)C(=O)N[C@@H](Cc1c[nH]cn1)C(=O)N1CCC[C@H]1C(=O)N[C@@H](Cc1c[nH]cn1)C(=O)N[C@H](C(=O)N[C@@H](Cc1ccc(O)cc1)C(=O)O)[C@@H](C)O,"HLA class I histocompatibility antigen, A alpha chain",cell-free assay,,,IC50,0.107 µM
Cc1nn(C)cc1-c1nc2c(N3CCN(Cc4ccc(Cl)cc4)CC3)c(Cl)cnc2[nH]1,"Ribosomal protein S6 kinase alpha-6, C-terminal kinase domain (RPS6KA6, Homo sapiens, UniProt Q9UK32)","binding, competition with immobilised ligand",,1 µM,remaining binding,89%
CSCC[C@H](NC(=O)[C@H](CCCNC(=N)N)NC(=O)[C@@H](N)C(C)C)C(=O)N[C@@H](CCCNC(=N)N)C(=O)N[C@@H](CC(C)C)C(=O)N[C@@H](CCCNC(=N)N)C(=O)N[C@@H](CCCCN)C(=O)N[C@@H](CC(C)C)C(=O)N[C@@H](CCCNC(=N)N)C(=O)N[C@@H](C)C(=O)N[C@@H](CO)C(=O)N[C@@H](Cc1ccccc1)C(=O)N[C@@H](Cc1ccccc1)C(=O)N[C@@H](CCCCN)C(=O)N[C@@H](CCC(N)=O)C(=O)N1CCC[C@H]1C(=O)N[C@@H](CCC(=O)O)C(=O)O,TEAD4,"binding, SPR",,pH 7.4,Kd,8.55 µM
N.N.[Cl][Pt][Cl],L-82,"cell growth or viability, ATP luminescence",,"10 µM, 72 h",inhibition,100%
CSc1nc2ccc(Cl)cc2c(=O)n1Cc1cccnc1,4'-phosphopantetheinyl transferase PptT,"enzyme activity, inhibitor, FP",,,IC50,> 100 µM
CN1CCC2=C(C1)c1ccccc1Cc1ccccc12,HTR1F,"G protein activation, agonist, BRET",,,EC50,0.0646 µM
CC(C)C[C@H](NC(=O)[C@@H](N)CCCCN)C(=O)N[C@@H](Cc1ccccc1)C(=O)N[C@@H](CO)C(=O)N[C@@H](CCCNC(=N)N)C(=O)N1CCC[C@H]1C(=O)N[C@@H](CC(C)C)C(=O)N[C@H](C(=O)N[C@@H](Cc1ccccc1)C(=O)O)[C@@H](C)O,"HLA class I histocompatibility antigen, A alpha chain",cell-free assay,,,IC50,0.021 µM
C#Cc1ccc2c(c1)C(c1ccccn1)=NCc1c(-c3cnco3)ncn1-2.Cl,,,water,"2 h, 37 °C",kinetic solubility,6.82 mg/mL
CCN(CC)C(=O)N[C@H]1C[C@@H]2c3cccc4[nH]cc(c34)C[C@H]2N(C)C1,HTR1F,"G protein activation, agonist, BRET",,,EC50,0.446 µM

# A few entries again:
Structure (SMILES),tested on,assay,system,conditions,quantity,value
N.N.[Cl][Pt][Cl],L-82,"cell growth or viability, ATP luminescence",,"10 µM, 72 h",inhibition,100%
CSc1nc2ccc(Cl)cc2c(=O)n1Cc1cccnc1,4'-phosphopantetheinyl transferase PptT,"enzyme activity, inhibitor, FP",,,IC50,> 100 µM
CN1CCC2=C(C1)c1ccccc1Cc1ccccc12,HTR1F,"G protein activation, agonist, BRET",,,EC50,0.0646 µM
CC(C)C[C@H](NC(=O)[C@@H](N)CCCCN)C(=O)N[C@@H](Cc1ccccc1)C(=O)N[C@@H](CO)C(=O)N[C@@H](CCCNC(=N)N)C(=O)N1CCC[C@H]1C(=O)N[C@@H](CC(C)C)C(=O)N[C@H](C(=O)N[C@@H](Cc1ccccc1)C(=O)O)[C@@H](C)O,"HLA class I histocompatibility antigen, A alpha chain",cell-free assay,,,IC50,0.021 µM
